Published values collected from several papers.
Lines come from different studies, so protocols differ. Values joined by “and” are separate records of one study, mostly repeats; a detail may differ. ± marks the error that the study gave.
Organism: Schistosoma mansoni

CC1=C(Cc2cn(CCO)nn2)C(=O)c2ccccc2C1=O — killing (adult worms; 10 µM, 48 h): 51%
CCC(F)(F)c1cc(N2C(=O)NC(C)(C)C2=O)ccc1F — worm burden reduction (NMRI mice, infected; oral, 100 mg/kg single dose, 21 days post-treatment, treated day 49 post-infection): 26%
Fc1cc(F)c(-c2c(Cl)nc(-c3cccs3)nc2NC2CC2)c(F)c1 — EC50 (worm motility; adult worms ex vivo; 24 h): > 5000 nM
O=C(C1CCCCC1)N1CC(=O)N2CCc3ccccc3C2C1 (racemic) — worm burden (infected mice; intraperitoneal, 50 mg/kg 1 times daily for 3 days, dosed 7 weeks post-infection): 18 ± 11 worms
COc1ccc(Nc2cnnc3ccc(-c4ccc(N5CCN(C)CC5)cc4)cc23)cc1 — phenotypic severity score (adult worms; 10 µM, 1 h; direction not given): 0
Fc1cc(F)c(-c2c(Cl)nc(-c3cccs3)nc2NC2COC2)c(F)c1 — EC50 (worm motility; adult worms ex vivo; 24 h): 1820 nM
CC1(C)NC(=O)N(c2cc(C(F)(F)F)c(F)cc2C#N)C1=O — worm burden reduction (NMRI mice, infected; oral, 100 mg/kg single dose, 21 days post-treatment, treated day 49 post-infection): 14%
CN1CCN(c2ncc(-c3ccc4c(Nc5ncccn5)cnnc4c3)cn2)CC1 — phenotypic severity score (adult worms; 10 µM, 1 h; direction not given): 0
CC1(CNc2nc(-c3cccs3)nc(Cl)c2-c2c(F)cc([N+](=O)[O-])cc2F)COC1 — EC50 (motility; adult worms, ex vivo; 24 h): 3090 nM
CC1=C(Cn2cncn2)C(=O)c2ccccc2C1=O — killing (adult worms; 10 µM, 72 h): 50%
Fc1cc(F)c(-c2c(Cl)nc(-c3cccs3)nc2N2CCOC2)c(F)c1 — EC50 (worm motility; adult worms ex vivo; 24 h): > 5000 nM
CN1CCN(c2ccc(-c3ccc4c(Nc5ncccn5)cnnc4c3)cc2)CC1 — phenotypic severity score (adult worms; 10 µM, 24 h; direction not given): 0
CC1(C)NC(=O)N(c2ccc(F)c(F)c2)C1=O — worm burden reduction (NMRI mice, infected; oral, 100 mg/kg single dose, 21 days post-treatment, treated day 49 post-infection): 64%
O=C(C1CCCCC1)N1CC(=O)N2CCc3ccccc3C2C1 (centres unmarked) — male worms recovered (mice; 100 mg/kg daily x4, dosed day 7, perfused 49): 3 worms per mouse and 8 worms per mouse and 19 worms per mouse and 12 worms per mouse
CN1CCN(S(=O)(=O)c2ccc(-c3ccc4c(Nc5cnccn5)cnnc4c3)cc2)CC1 — phenotypic severity score (adult worms; 10 µM, 5 h; direction not given): 0
O=C(C1CCC(F)(F)CC1)N1CC(=O)N2CCc3ccccc3[C@@H]2C1 — EC50 (adult worms; 4 h): 2000 nM
CC1(C(F)F)NC(=O)N(c2ccc(F)c(C(F)(F)F)c2)C1=O (centres unmarked) — worm burden reduction (adult, infected mice; oral, 50 mg/kg single dose): 95%
COc1ccc(Nc2cnnc3ccc(-c4ccc(S(=O)(=O)N5CCN(C)CC5)cc4)cc23)cc1 — phenotypic severity score (adult worms; 10 µM, 48 h; direction not given): 0
CC1(CNc2nc(-c3cccs3)nc(Cl)c2-c2c(F)cc(N)cc2F)COC1 — motility (juvenile; 1.2 µM, 2 h pulse then washout, 9-day incubation; reference: DMSO control): < 25%
O=C1NC2(CCS(=O)(=O)CC2)C(=O)N1c1ccc(F)c(C(F)(F)F)c1 — worm burden reduction (NMRI mice, infected; oral, 100 mg/kg single dose, 21 days post-treatment, treated day 49 post-infection): 27%
CC1=C(Cn2cc(C(C)(C)O)nn2)C(=O)c2ccccc2C1=O — killing (adult worms; 25 µM, 72 h): 45.1%
O=C(C1CCSCC1)N1CC(=O)N2CCc3ccccc3[C@@H]2C1 — EC50 (adult worms; 4 h): 197 nM
O=C1c2ccccc2C23C(=O)Nc4ccccc4C2(O)CCN13 (centres unmarked) — IC50 (adult worms; ex vivo): 13 µM
COc1ccc(Nc2cnnc3ccc(-c4cnc(N5CCN(C)CC5)nc4)cc23)cc1 — phenotypic severity score (adult worms; 10 µM, 48 h; direction not given): 1
CC1=C(Cn2cc(COC3COC3)nn2)C(=O)c2ccccc2C1=O — selectivity index (NTS; reference: L6 CC50 over IC50): 6.6
CC1(CNc2nc(-c3cccs3)nc(Cl)c2-c2c(F)cc(O)cc2F)COC1 — EC50 (worm motility; adult worms ex vivo; 24 h): < 300 nM
CC1=C(Cn2cc(CN3CCN(C(=O)OC(C)(C)C)CC3)nn2)C(=O)c2ccccc2C1=O — killing (adult worms; 25 µM, 48 h): 45.5%
Cc1ccc(Nc2cnnc3ccc(-c4ccc(S(=O)(=O)N5CCN(C)CC5)cc4)cc23)cn1 — phenotypic severity score (adult worms; 10 µM, 5 h; direction not given): 0
CC(C)C(=O)Nc1nc(-c2cccs2)nc(Cl)c1-c1c(F)cc(F)cc1F — EC50 (worm motility; adult worms ex vivo; 24 h): > 5000 nM
CC1=C(Cc2cn(CCOS(=O)(=O)c3ccc(C)cc3)nn2)C(=O)c2ccccc2C1=O — killing (adult worms; 25 µM, 72 h): 48%
CC(C)[C@@H](C)Nc1nc(-c2cccs2)nc(Cl)c1-c1c(F)cc(C#N)cc1F — EC50 (worm motility; adult worms ex vivo; 24 h): 1020 nM
CC1=C(Cn2cnc([N+](=O)[O-])n2)C(=O)c2ccccc2C1=O — killing (adult worms; 10 µM, 24 h): 38%
CC1(C(F)(F)F)NC(=O)N(c2ccc(F)c(C(F)(F)F)c2)C1=O (centres unmarked) — worm burden reduction (juvenile, infected mice; oral, 50 mg/kg single dose): 7.1%
COc1ccc(Nc2cnnc3cc(-c4ccc(S(=O)(=O)N5CCN(C)CC5)cc4)ccc23)cc1Cl — phenotypic severity score (adult worms; 10 µM, 1 h; direction not given): 1
CC1=C(Cn2ccnn2)C(=O)c2ccccc2C1=O — selectivity index (NTS; reference: L6 CC50 over IC50): 5.9

Repeated from above:
CC1(C)NC(=O)N(c2cc(C(F)(F)F)c(F)cc2C#N)C1=O — worm burden reduction (NMRI mice, infected; oral, 100 mg/kg single dose, 21 days post-treatment, treated day 49 post-infection): 14%
CN1CCN(c2ncc(-c3ccc4c(Nc5ncccn5)cnnc4c3)cn2)CC1 — phenotypic severity score (adult worms; 10 µM, 1 h; direction not given): 0
CC1(CNc2nc(-c3cccs3)nc(Cl)c2-c2c(F)cc([N+](=O)[O-])cc2F)COC1 — EC50 (motility; adult worms, ex vivo; 24 h): 3090 nM
CC1=C(Cn2cncn2)C(=O)c2ccccc2C1=O — killing (adult worms; 10 µM, 72 h): 50%
